Assay results gathered from unrelated publications.
Protocols differ between the studies behind these lines. ± gives the spread as reported.
Sequence of UniProt P08183 (whole entry, looked up): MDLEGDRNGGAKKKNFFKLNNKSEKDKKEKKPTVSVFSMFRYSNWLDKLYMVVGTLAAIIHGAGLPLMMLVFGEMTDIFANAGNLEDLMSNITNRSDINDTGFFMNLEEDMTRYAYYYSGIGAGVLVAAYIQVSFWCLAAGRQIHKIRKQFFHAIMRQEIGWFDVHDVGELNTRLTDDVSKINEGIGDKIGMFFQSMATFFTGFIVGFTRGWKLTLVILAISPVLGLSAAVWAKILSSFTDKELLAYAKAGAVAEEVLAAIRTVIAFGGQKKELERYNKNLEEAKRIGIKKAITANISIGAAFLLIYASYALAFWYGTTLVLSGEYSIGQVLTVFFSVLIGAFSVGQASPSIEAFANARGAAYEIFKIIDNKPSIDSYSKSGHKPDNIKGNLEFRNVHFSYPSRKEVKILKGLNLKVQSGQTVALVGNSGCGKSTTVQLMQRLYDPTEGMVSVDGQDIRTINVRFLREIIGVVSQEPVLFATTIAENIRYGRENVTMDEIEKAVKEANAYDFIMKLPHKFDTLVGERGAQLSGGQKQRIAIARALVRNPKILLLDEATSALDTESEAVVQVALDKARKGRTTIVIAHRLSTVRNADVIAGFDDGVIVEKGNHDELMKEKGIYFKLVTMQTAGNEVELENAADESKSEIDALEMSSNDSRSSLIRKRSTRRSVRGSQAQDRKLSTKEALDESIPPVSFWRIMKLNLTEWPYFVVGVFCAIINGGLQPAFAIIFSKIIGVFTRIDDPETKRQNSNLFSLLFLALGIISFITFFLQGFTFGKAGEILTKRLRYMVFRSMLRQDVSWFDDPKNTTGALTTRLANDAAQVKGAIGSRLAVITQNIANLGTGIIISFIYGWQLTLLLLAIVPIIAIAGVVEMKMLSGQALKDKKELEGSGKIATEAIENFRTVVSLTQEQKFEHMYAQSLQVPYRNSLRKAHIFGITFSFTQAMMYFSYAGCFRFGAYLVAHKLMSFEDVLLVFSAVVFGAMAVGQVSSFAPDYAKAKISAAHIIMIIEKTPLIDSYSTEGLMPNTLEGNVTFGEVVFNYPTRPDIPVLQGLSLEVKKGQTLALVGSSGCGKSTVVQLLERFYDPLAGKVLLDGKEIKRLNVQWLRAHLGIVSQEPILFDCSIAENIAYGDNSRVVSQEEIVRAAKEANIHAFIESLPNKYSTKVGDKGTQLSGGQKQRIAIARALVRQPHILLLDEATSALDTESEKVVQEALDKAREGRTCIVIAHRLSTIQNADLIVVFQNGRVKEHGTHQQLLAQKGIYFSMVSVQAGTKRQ

The concentration of `O=C(N[C@H](Cc1c[nH]c2ccccc12)C(=O)Nc1ccncc1)c1ccc(-c2ccc(F)c(Cl)c2)cc1F` is reported as 8.9 µM (Swiss Webster mouse, female, plasma; oral, 50 mg/kg, 2 h, 20% Kolliphor vehicle).
`CN(C(=O)n1cnc(-c2cccnc2)c1)[C@H]1CC[C@H](O)CC1` gave a concentration of 14.4 ± 1.2 ng/g (Wistar rat, medulla oblongata; oral, 10 mg/kg/day of BIA 10-2474, 48 h, repeated 5 days).
For `O=C(N[C@H](Cc1c[nH]c2ccccc12)C(=O)Nc1ccncc1)c1ccc(N2CCN(c3ccc(F)cc3F)CC2)cc1F`, the concentration was 72 µM (Swiss Webster mouse, female, intestine; oral, 50 mg/kg, 2 h, 20% HPβCD vehicle).
For `COC(=O)[C@@H]1[C@H]2C[C@H]3c4[nH]c5ccccc5c4CCN3C[C@@H]2CC[C@@H]1O`, the concentration was 0.45 µM (rat, thoracic spinal cord; intraperitoneal, 1 mg/kg, 1.5 h).
`CN(C(=O)n1cnc(-c2ccc[n+]([O-])c2)c1)[C@H]1CC[C@H](O)CC1` gave a concentration of 15.3 ± 1.4 ng/g (Wistar rat, midbrain; oral, 10 mg/kg of BIA 10-2474, 1 h, single dose).
`CCCCCCNc1nc(NC2CCN(C)CC2)c2cc(OC)c(OC)cc2n1` gave an EC50 of 2.23 µM (Toxoplasma gondii; bradyzoite growth; glutamine-induced bradyzoites, glucose-free medium).
`Cc1nccc2c1c(=O)n(C)c1cc(OC[C@@H](N)CC(C)C)c(C#N)cc21` gave a concentration of 0.0033 µM (rat, plasma; intrathecal, 0.3 µg, 30 min).
`CNC(=O)c1ccc(-c2cnc3ncc(Cc4ccc5ncccc5c4)n3n2)cc1F` — result for “dry mouth incidence (all grades)”: 11% (CTCAE v4.0, any causality; human gastric cancer patients; oral, 600 mg twice daily, expansion cohort at RP2D).
`O=C(N[C@H](Cc1c[nH]c2ccccc12)C(=O)Nc1ccncc1)c1ccc(-c2ccc(F)c(C(F)(F)F)c2)cc1F` gave a concentration of 10.4 µM (Swiss Webster mouse, female, heart; oral, 50 mg/kg, 8 h, 20% HPβCD vehicle).
With `COc1nc(-c2cc(C)c(N[C@@H](C)c3cc(F)cc(F)c3)nn2)ccc1-n1cnc(C)c1` the concentration was 3950 ng/g (rat Sprague-Dawley male, brain; oral, 25 mg/kg daily for 9 days, 4 h after dose).
With `Clc1cccc(Cl)c1N=C1NCCN1` the concentration was 3.21 µM (rat, lumbar spinal cord; intrathecal, 3 µg, 30 min).
For `CC(C)(O)c1coc(S(=O)(=O)NC(=O)Nc2c3c(cc4c2CCC4)CCC3)c1`, the concentration was 9710 ± 6340 ng/g (male Sprague-Dawley rats, ankle joint; oral, 2 mg/kg, 2 h).
`CC[C@H]1[C@@H](O)[C@@H]2[C@H](CC[C@]3(C)[C@@H]([C@H](C)CCNC(=O)NS(=O)(=O)c4ccc(C(C)(C)C)cc4)CC[C@@H]23)[C@@]2(C)CC[C@@H](O)C[C@@H]12`: “AUC(0-t) geometric mean” 350 ng·h/mL (ABCB1 (Homo sapiens, UniProt P08183); substrate; human, plasma; dose not given, alone).
`O=C(c1ccc(OCCN2CCCCC2)cc1)c1c(-c2ccc(O)cc2)sc2cc(O)ccc12` has an EC90 of 10.8 µM (Toxoplasma gondii; parasite growth; HFF, bradyzoite, glutamine-induced).

Repeated from above:
For `CC(C)(O)c1coc(S(=O)(=O)NC(=O)Nc2c3c(cc4c2CCC4)CCC3)c1`, the concentration was 9710 ± 6340 ng/g (male Sprague-Dawley rats, ankle joint; oral, 2 mg/kg, 2 h).
